{"data": "Experimental data of several laboratories", "note": "Compare with care: the assays were run in different laboratories. Values joined by “and” are separate records of one study, mostly repeats; a detail may differ. ± gives the spread as reported."}
{"SMILES": "CC(C)C[C@H](NC(=O)C[C@H](O)[C@H](CC(C)C)NC(=O)[C@H](Cc1c[nH]cn1)NC(=O)CNC(=O)[C@@H](NC(=O)[C@H](C)NC(=O)[C@H](Cc1c[nH]c2ccccc12)NC(=O)[C@H](CCC(N)=O)NC(=O)[C@@H](Cc1ccccc1)NC(=O)COCCOCCNC(=O)CCC(C(=O)O)N1CCN(CC(=O)O)CCN(CC(=O)O)CCN(CC(=O)O)CC1)C(C)C)C(N)=O (stereo partly drawn) [lutetium-177 labelled]", "system": "BALB/c nu/nu mice, kidneys", "setting": "intravenous, 500 pmol, 1 h, with: PA 300 µg", "measurement": "tissue uptake", "value": "4.9 ± 0.6 %ID/g"}
{"SMILES": "Cc1ccc(S(=O)(=O)O)cc1", "tested on": "THP-1", "assay": "pyroptotic LDH release", "setting": "2 µM, 40 min, with: LPS then nigericin", "measurement": "inhibition", "value": "7.99%"}
{"SMILES": "COc1cc2c(c(OC)c1OC)C(=O)c1c(cc(C)c(O)c1OC)C2=O", "tested on": "HK-2 co-cultured with HepaRG", "assay": "MTT", "setting": "16.67 µM, 48 h", "scale": "baseline: untreated control", "measurement": "viability", "value": "84.5 ± 4.86%"}
{"SMILES": "OC(CCN1CCCCC1)(c1ccccc1)C1CC2C=CC1C2 (stereo not drawn)", "assay": "resting-state EEG", "system": "healthy elderly humans", "setting": "oral, 4 mg, eyes closed, LS mean", "measurement": "EEG Alpha2-power Fz-Cz", "value": "2.7 µV²"}
{"SMILES": "CC(C)n1ncc2c(C(=O)NCC3(C)CNC3)cc(C3CC3)nc21", "tested on": "Enterovirus D68", "assay": "cytopathic effect", "system": "RD, US/MO/14-18949", "setting": "150 nM", "measurement": "cell protection", "value": "-0.137% and 0.137% and -0.273%"}
{"SMILES": "Cc1ccc(S(=O)(=O)NC(=O)NN2CCCCCC2)cc1", "tested on": "THP-1", "assay": "pyroptotic LDH release", "setting": "2 µM, 40 min, with: LPS then nigericin", "measurement": "inhibition", "value": "-4.37%"}
{"SMILES": "COc1ccc2nc(-c3cc(N(C)C)ccn3)c(Nc3ccc(F)cc3)n2c1", "tested on": "Leishmania infantum", "system": "macrophages, MHOM/MA(BE)/67/ITMAP263, amastigote", "measurement": "IC50", "value": "1.49 µM and 2.01 µM"}
{"SMILES": "Cn1cc(-c2ccc(-c3cncc(Cl)c3N3CCC4(CCNC4=O)CC3)cc2)cn1", "tested on": "COLO 205", "assay": "gene expression, microarray, refers to: CD59 mRNA", "setting": "concentration not given, 2 h", "scale": "baseline: untreated cells", "measurement": "log2 fold change", "value": 1.72}
{"SMILES": "CCCCN(Cc1c(-c2ccccc2)nc2ccc(C)cn12)c1cccc(C(F)(F)F)c1", "tested on": "Leishmania infantum", "system": "macrophages, MHOM/MA(BE)/67/ITMAP263, amastigote", "measurement": "IC50", "value": "2.38 µM and 1.41 µM"}
{"SMILES": "O=C1c2cccc(O)c2C(=O)c2c(O)cc(CO)cc21", "tested on": "HK-2 co-cultured with HepaRG", "assay": "MTT", "setting": "266.67 µM, 24 h", "scale": "baseline: untreated control", "measurement": "viability", "value": "147 ± 23.6%"}
{"SMILES": "Nc1ccc2cc3ccc(N)cc3nc2c1", "tested on": "THP-1", "assay": "pyroptotic LDH release", "setting": "2 µM, 40 min, with: LPS then nigericin", "measurement": "inhibition", "value": "-7.7%"}
{"SMILES": "Fc1ccc(-c2c(-c3ccccn3)nc3n2CCC3)cc1", "tested on": "Leishmania infantum", "system": "macrophages, MHOM/MA(BE)/67/ITMAP263, amastigote", "measurement": "IC50", "value": "3.17 µM and 2 µM"}
{"note": "Excerpt of the above:"}
{"SMILES": "Nc1ccc2cc3ccc(N)cc3nc2c1", "tested on": "THP-1", "assay": "pyroptotic LDH release", "setting": "2 µM, 40 min, with: LPS then nigericin", "measurement": "inhibition", "value": "-7.7%"}
